Published values of several laboratories.
Compare with care: the assays were run in different laboratories.
EGFR: Epidermal growth factor receptor (EGFR, Homo sapiens, UniProt P00533)
EGFR with EGF: Epidermal growth factor receptor, with EGF (EGFR, Homo sapiens, UniProt P00533)
EGFR T790M: Epidermal growth factor receptor (EGFR, Homo sapiens, UniProt P00533, T790M)

Cc1c(C(=O)NNC(=S)Nc2ccc(Cl)cc2)nnn1Cc1nc2ccccc2[nH]1 — relative activity (EGFR; inhibitor; concentration not given; baseline: gefitinib): ~60%
COc1cc(CC(=O)N2CC(=O)N[C@@H](Cc3ccccc3)CN(C(=O)Cc3ccc4ccccc4c3)CC(=O)N[C@@H](CCCCN)CN(C(=O)Cc3ccc4c(c3)OCO4)CC(=O)N[C@@H](CCCCN)CN(CC(N)=O)C(=O)CCSCc3ccc(cc3)C(=O)N[C@@H](CC(C)C)C2)cc(OC)c1 — selectivity ratio (EGFR; binding, SPR; baseline: Kd EGFR over Kd HER2): 10 fold
CC(C)[C@H](NC(=O)[C@H](CCC(=O)O)NC(=O)[C@H](CCC(=O)O)NC(=O)[C@H](Cc1ccc(O)cc1)NC(=O)[C@H](CCC(=O)O)NC(=O)[C@H](CC(=O)O)NC(=O)[C@H](CC(=O)O)NC(=O)[C@H](CCC(=O)O)NC(=O)CCCCCNC(=O)[C@H](C)N(C)C(=O)[C@H](Cc1ccccc1)NC(=O)[C@@H](NC(=O)[C@H](Cc1ccccc1)NC(=O)[C@H](C)NC(=O)[C@H](CCCNC(=N)N)N(C)C(=O)[C@@H]1CCCN1C(=O)[C@H](CCCNC(=N)N)NC(=O)CNC(=O)c1ccc2c(c1)C1(OC2=O)c2ccc(O)cc2Oc2cc(O)ccc21)[C@@H](C)O)C(N)=O — Km (EGFR; enzyme activity, substrate): 812 µM
O=C(c1ccc2ccccc2c1)c1cn(-c2ccccc2)nc1C1=Nn2c(Cc3nnc4n3N=C(c3nn(-c5ccccc5)cc3C(=O)c3ccc5ccccc5c3)CS4)nnc2SC1 — inhibition (EGFR; enzyme activity, inhibitor, ADP detection; 10 µM): 97.2%
CC(C)C[C@@H]1NC(=O)C[C@H](c2ccccc2)NC(=O)[C@H](CC(N)=O)NC(=O)C[C@H](C)NC(=O)[C@H](Cc2ccc(O)cc2)NC(=O)CSC[C@@H](C(=O)NCC(N)=O)NC(=O)[C@H](CO)NC(=O)[C@@H]2CCCN2C(=O)C[C@H](c2ccccc2)NC(=O)[C@H](CC(C)C)NC(=O)[C@H](Cc2ccccc2)NC(=O)C[C@H](c2ccccc2)NC(=O)[C@H](CC(=O)O)NC(=O)[C@H](CC(N)=O)NC(=O)[C@H](Cc2ccccc2)NC1=O — protein interaction inhibition (EGFR with EGF; inhibitor, AlphaLISA; concentration not given): inactive
Nc1ncnc2c1sc1sc3c(N)ncnc3c12 — relative potency (EGFR T790M; kinase activity; baseline: gefitinib IC50 over compound IC50): 4.27
Cc1ccnc(-c2cc(C(=O)NCCCCn3cc(CN(CC(N)=O)C(=O)CN(CCCCN)C(=O)CN(CCCCN)C(=O)CN(CC(C)C)C(=O)CN(CCCCN)C(=O)CN(Cc4ccc5c(c4)OCO5)C(=O)CN(C(=O)CN(CCCCN)C(=O)CN(CC(C)C)C(=O)CNCCCCN)C(C)c4ccccc4)nn3)ccn2)c1 (stereo not drawn) — autophosphorylation (EGFR; NCI-H441; irradiated 10 min, with: EGF): no effect
COc1cc(C(=O)NC2CCC(N3CCN(CC4CCC5(CCCC5)C4)CC3)CC2)c(F)cc1Nc1ncc2c(n1)N(C1CCCC1(F)F)CC(F)(F)C(=O)N2C (stereo not drawn) — inhibition (EGFR; cell-free assay, TR-FRET; 10 µM): 0.49%
Oc1ncnc2c1sc1sc3c(O)ncnc3c12 — relative potency (EGFR T790M; kinase activity; baseline: gefitinib IC50 over compound IC50): 2.95
C=CC(=O)Nc1cc(Nc2nccc(-n3ccc4nc(OC)ccc43)n2)c(OC)cc1N(C)CCN(C)C — selectivity ratio (Epidermal growth factor receptor (EGFR, Homo sapiens, UniProt P00533, L858R/T790M); KINOMEscan; baseline: Kd wild-type over Kd mutant): ~90
CC(C)[C@H](NC(=O)[C@H](CCC(=O)O)NC(=O)[C@H](CCC(=O)O)NC(=O)[C@H](Cc1ccc(O)cc1)NC(=O)[C@H](CCC(=O)O)NC(=O)[C@H](CC(=O)O)NC(=O)[C@H](CC(=O)O)NC(=O)[C@H](CCC(=O)O)NC(=O)[C@@H](CCCNC(=N)N)NC(=O)[C@@H](CCCNC(=N)N)NC(=O)[C@@H](CCCNC(=N)N)NC(=O)[C@H](C)N(C)C(=O)[C@H](Cc1ccccc1)NC(=O)[C@@H](NC(=O)[C@H](Cc1ccccc1)NC(=O)[C@H](C)NC(=O)[C@H](CCCNC(=N)N)N(C)C(=O)[C@@H]1CCCN1C(=O)[C@H](CCCNC(=N)N)NC(=O)CNC(=O)c1ccc2c(c1)C1(OC2=O)c2ccc(O)cc2Oc2cc(O)ccc21)[C@@H](C)O)C(N)=O — Km (EGFR; enzyme activity, substrate): 82 µM
COc1ccc2c(c1)c(C)c1c(-c3ccccc3)c(S(=O)(=O)c3ccc(C)cc3)c3ccccc3n12 — inhibition (EGFR; enzyme activity, inhibitor, ADP detection; 1 µM): > 50%
N=C(N)NCCC[C@@H]1NC(=O)[C@H](Cc2c[nH]c3ccccc23)NC(=O)[C@H](CCCNC(=N)N)NC(=O)[C@H](Cc2c[nH]c3ccccc23)NC(=O)[C@H](CCCNC(=N)N)NC(=O)[C@H](Cc2c[nH]c3ccccc23)NC(=O)[C@H](CCCNC(=N)N)NC(=O)[C@H](Cc2c[nH]c3ccccc23)NC(=O)[C@H](CCCNC(=N)N)NC(=O)[C@H](Cc2c[nH]c3ccccc23)NC(=O)[C@H](CCCNC(=N)N)NC(=O)[C@H](Cc2c[nH]c3ccccc23)NC(=O)[C@H](CCCNC(=N)N)NC(=O)[C@H](Cc2c[nH]c3ccccc23)NC(=O)[C@H](CCCNC(=N)N)NC(=O)[C@H](Cc2c[nH]c3ccccc23)NC(=O)[C@H](CCCNC(=N)N)NC(=O)[C@H](Cc2c[nH]c3ccccc23)NC1=O — remaining activity (EGFR; kinase activity, Reaction Biology radiometric; concentration not given, with: ATP 200 µM; baseline: DMSO): 72.6%
CN1CCN(c2ccc(Nc3ncc(Cl)c(Nc4ccccc4P(C)(C)=O)n3)cc2Br)CC1 — phosphorylation (Epidermal growth factor receptor (EGFR, Homo sapiens, UniProt P00533, C797S/del746-750/T790M); western blot; nude mice, PC9-OR xenograft, tumour; dose not given): inhibited
Cc1c2ccccc2n2c1c(-c1ccccc1)c(S(=O)(=O)c1ccccc1)c1ccccc12 — inhibition (EGFR; enzyme activity, inhibitor, ADP detection; 1 µM): > 50%
CC(C)C[C@@H]1NC(=O)C[C@H](c2ccccc2)NC(=O)[C@H](CC(N)=O)NC(=O)C[C@H](C)NC(=O)[C@H](Cc2ccc(O)cc2)NC(=O)CSC[C@@H](C(=O)NCC(N)=O)NC(=O)[C@H](CO)NC(=O)[C@@H]2CCCN2C(=O)C[C@H](c2ccccc2)NC(=O)[C@H](CC(C)C)NC(=O)C[C@H](c2ccccc2)NC(=O)C[C@H](c2ccccc2)NC(=O)[C@H](CC(=O)O)NC(=O)[C@H](CC(N)=O)NC(=O)[C@H](Cc2ccccc2)NC1=O — protein interaction inhibition (EGFR with EGF; inhibitor, AlphaLISA; concentration not given): inactive
CC(=O)N[C@@H](Cc1c[nH]c2ccccc12)C(=O)N[C@@H](Cc1c[nH]c2ccccc12)C(=O)N[C@@H](Cc1c[nH]c2ccccc12)C(=O)N[C@@H](Cc1c[nH]c2ccccc12)C(=O)N[C@@H](Cc1c[nH]c2ccccc12)C(=O)N[C@@H](Cc1c[nH]c2ccccc12)C(=O)NCCCC[C@@H]1NC(=O)[C@H](CCCNC(=N)N)NC(=O)[C@H](CCCNC(=N)N)NC(=O)[C@H](CCCNC(=N)N)NC(=O)[C@H](CCCNC(=N)N)NC(=O)[C@H](CCCNC(=N)N)NC(=O)[C@H](CCCNC(=N)N)NC1=O — remaining activity (EGFR; kinase activity, Reaction Biology radiometric; concentration not given, with: ATP 200 µM; baseline: DMSO): 127%
Cc1ccc(S(=O)(=O)c2c(-c3ccccc3)c3c(C)c4cc(F)ccc4n3c3ccccc23)cc1 — inhibition (EGFR; enzyme activity, inhibitor, ADP detection; 1 µM): > 50%

Excerpt of the above:
CC(=O)N[C@@H](Cc1c[nH]c2ccccc12)C(=O)N[C@@H](Cc1c[nH]c2ccccc12)C(=O)N[C@@H](Cc1c[nH]c2ccccc12)C(=O)N[C@@H](Cc1c[nH]c2ccccc12)C(=O)N[C@@H](Cc1c[nH]c2ccccc12)C(=O)N[C@@H](Cc1c[nH]c2ccccc12)C(=O)NCCCC[C@@H]1NC(=O)[C@H](CCCNC(=N)N)NC(=O)[C@H](CCCNC(=N)N)NC(=O)[C@H](CCCNC(=N)N)NC(=O)[C@H](CCCNC(=N)N)NC(=O)[C@H](CCCNC(=N)N)NC(=O)[C@H](CCCNC(=N)N)NC1=O — remaining activity (EGFR; kinase activity, Reaction Biology radiometric; concentration not given, with: ATP 200 µM; baseline: DMSO): 127%
